Assay results gathered from unrelated publications.
Each numbered part is a random draw from the data of one study; scales do not carry over between parts. Substitutions count along the parent as printed.

Block 1 — method: protein binding microarray; molecule type: double-stranded DNA, one strand shown; matrix: in vitro; tested at: not given; reference: not given; reading: higher = stronger binding
Target: Histone acetyltransferase KAT6A, both winged helices, GST fusion (KAT6A, Homo sapiens, UniProt Q92794, residues 1-181)
Setting: 8-mer, flanks averaged, mean of 2 arrays, mostly near background
Construct (chain): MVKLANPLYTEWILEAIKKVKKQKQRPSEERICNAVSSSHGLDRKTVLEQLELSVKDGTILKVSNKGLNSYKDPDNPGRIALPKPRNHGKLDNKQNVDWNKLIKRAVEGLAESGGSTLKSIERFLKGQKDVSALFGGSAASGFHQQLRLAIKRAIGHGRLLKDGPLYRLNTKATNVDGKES
| Sequence | E-score |
| --- | --- |
| ATCGCGTC | 0.221 |
| AAAACCGC | 0.188 |
| ACCGTAAT | 0.0541 |
| TCTACACA | -0.146 |
| GAGTAGCA | -0.237 |
| CCTAGCGA | -0.0661 |
| GGCGTTCA | 0.0747 |
| TGCGTCAA | 0.0191 |
| CAGTCGTC | -0.118 |
| ATGCCTAG | -0.121 |
| CCCTTAGC | 0.0118 |
| TGAAATAA | -0.0901 |
| CTGGCTCC | -0.0528 |
| CGCGATCA | 0.189 |
| ACTGTGTA | -0.0359 |
| CACGCGCA | 0.305 |
| AGGGGACT | -0.266 |
| AACGCCGA | 0.294 |
| CTAATTGC | 0.034 |
| CTGCTCTA | -0.128 |
| ATAATACG | 0.0364 |
| ATATACAC | -0.0144 |

Block 2 — method: RNA Bind-n-Seq; molecule type: RNA; matrix: in vitro; tested at: 1 µM; setting: whole 134-nt RNA, ends assumed; together with: 150 mM KCl; reference: input library; reading: higher = stronger binding
Target: Ras GTPase-activating protein-binding protein 1, C-terminal RGG region (G3BP1, Homo sapiens, UniProt Q13283)
Chain of UniProt Q13283 (whole entry, looked up): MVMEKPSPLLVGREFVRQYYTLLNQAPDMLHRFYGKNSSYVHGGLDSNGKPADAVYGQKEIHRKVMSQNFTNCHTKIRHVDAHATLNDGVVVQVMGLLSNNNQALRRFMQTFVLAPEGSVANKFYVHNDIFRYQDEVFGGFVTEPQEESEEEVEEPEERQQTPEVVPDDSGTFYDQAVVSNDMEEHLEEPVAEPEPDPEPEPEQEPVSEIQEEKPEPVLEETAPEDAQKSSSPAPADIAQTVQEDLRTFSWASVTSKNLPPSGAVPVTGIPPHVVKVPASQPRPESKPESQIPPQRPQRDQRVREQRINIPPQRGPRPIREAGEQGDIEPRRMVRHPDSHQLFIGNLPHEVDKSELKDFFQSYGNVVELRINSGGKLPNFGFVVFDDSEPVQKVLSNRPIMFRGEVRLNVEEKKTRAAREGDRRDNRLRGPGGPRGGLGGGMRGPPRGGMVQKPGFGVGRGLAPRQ
Constant ends, left off below: GGGAGUUCUACAGUCCGACGAUC … UGGAAUUCUCGGGUGUCAAGG
| Sequence | log2 enrichment |
| --- | --- |
| UGGGAGGUGGAUUUUGUUUAUUUUUUUAGCUCAUUUCCAGGGGUGGGAAUUUUUUUUUAAUAUGUGUCAUGAAUAAAGUUGAUUUUGAAA | 3.49 |
| GCAGGAAGUAAAAACAAAUGGAAAUGCUUCGGAUAGUGGCAGGGGUGGGGGUUGCUAAGGAAAGGGUGGGAUGGGAGUGGGUAAGGAGUU | 0.622 |
| CCUGUGCUACACAUCGUAUGUACCGAAUCGGGGUUUUUUGGGGUUUUUUGGUUUUUUGGGGAAAGUAUUAUGUUACGCCGUUCGGAUCUG | -1.2 |
| UUCUAUUUCUUUCCUUAAUGUUUUUUUCUUCCCUACUGUUUUAUCCUCCCUUUGCUUUGGAAGGAUAUUGCUGCAUAUCGAGCUAAAGGA | -0.583 |
| CAAGUCCUGUGCUACACAUCGUAUGUACCGAAUCGGGUGGGAAAAAAAGGGUGGGAAAGUAUUAUGUUACGCCGUUCGGAUCUGCACUUC | 0.827 |
| CCUCAAGUCCUGUGCUACACAUCGUAUGUACCGAAUCGGGCGGGCGGCGGGGAAAGUAUUAUGUUACGCCGUUCGGAUCUGCACUUCCAG | 0.382 |
| AGUCCUGUGCUACACAUCGUAUGUACCGAAUCGGUUUUUGGGGUUUUUGGUUUUUGGAAAGUAUUAUGUUACGCCGUUCGGAUCUGCACU | -1.2 |
| GCAGGAAGUAAAAACAAAUGGAAAUGCUUCGGAUAGUGGCAGGGGUGGGGGUUGCUAAGGAAACGGUGGGAUGGGAGUGGGUAAAGAGUU | 1.18 |
| CCUGUGCUACACAUCGUAUGUACCGAAUCGGGGCCCCCCGGGGCCCCCCGGGCCCCCCGGGAAAGUAUUAUGUUACGCCGUUCGGAUCUG | -1.71 |
| GUCCUGUGCUACACAUCGUAUGUACCGAAUCGGGGUUUUUGGGGUUUGGGGUUUGGGGAAAGUAUUAUGUUACGCCGUUCGGAUCUGCAC | 3.59 |
| UCCUGUGCUACACAUCGUAUGUACCGAAUCAAACCCCCCCAAACCCCCCCAAAUUUAAAAAAGUAUUAUGUUACGCCGUUCGGAUCUGCA | -0.747 |
| GUCCUGUGCUACACAUCGUAUGUACCGAAUCGGGGAAAGGGGUUUUUGGGGUUUGGGGAAAGUAUUAUGUUACGCCGUUCGGAUCUGCAC | 1.62 |
| ACCAUGCAGGUGGGCAUGUUUGGGAAGUGGGGCAAGGGGGGGAUAGGGAGGGGGGUAACACUUUGGGAACAGGUGGUCCCAGGUCGUUUC | -0.929 |
| AGUCCUGUGCUACACAUCGUAUGUACCGAAUCAAACCCCCAAACCCCCAAACCCAAAAAAGUAUUAUGUUACGCCGUUCGGAUCUGCACU | -1.17 |

Block 3 — target: CCND1, cyclin fold, Cln2 fusion (human); method: yeast growth competition, sequencing; matrix: yeast; setting: weak parent motif; reference: not given; reading: higher = stronger binding
Starting sequence: ORC1 docking peptide (human); PRARKRLELGNLG
| Variant | normalised enrichment score |
| --- | --- |
| PRARKRLVLGNLG [E8V] | 0.373 |
| PRAFKRLELGNLG [R4F] | -0.172 |
| PMARKRLELGNLG [R2M] | 0.331 |
| QRARKRLELGNLG [P1Q] | 0.185 |
| PRARKRLPLGNLG [E8P] | 0.185 |
| PRARKRLEGGNLG [L9G] | -0.15 |
| PQARKRLELGNLG [R2Q] | -0.105 |
| PRARKRLEYGNLG [L9Y] | -0.0914 |
| ARARKRLELGNLG [P1A] | 0.172 |
| PRAVKRLELGNLG [R4V] | 0.068 |
| PAARKRLELGNLG [R2A] | -0.157 |
| PKARKRLELGNLG [R2K] | 0.0273 |
| PRARSRLELGNLG [K5S] | 0.00381 |
| PRARKRFELGNLG [L7F] | -0.684 |
| PRARKRHELGNLG [L7H] | -0.582 |
| PRARARLELGNLG [K5A] | -0.048 |
| PRARKRLELGHLG [N11H] | -0.145 |
| PRARKRLELGRLG [N11R] | 0.0666 |
| PNARKRLELGNLG [R2N] | 0.37 |
| PRARKRLELGNLQ [G13Q] | -0.516 |

Block 4 — method: RNA Bind-n-Seq; molecule type: RNA; matrix: in vitro; tested at: not given; reference: input RNA pool; reading: higher = stronger binding
Target: RING finger protein unkempt homolog, zinc fingers 1-6, GST-SBP tag (UNK, Homo sapiens, UniProt Q9C0B0, residues 30-357)
Chain of UniProt Q9C0B0 (30-357, looked up): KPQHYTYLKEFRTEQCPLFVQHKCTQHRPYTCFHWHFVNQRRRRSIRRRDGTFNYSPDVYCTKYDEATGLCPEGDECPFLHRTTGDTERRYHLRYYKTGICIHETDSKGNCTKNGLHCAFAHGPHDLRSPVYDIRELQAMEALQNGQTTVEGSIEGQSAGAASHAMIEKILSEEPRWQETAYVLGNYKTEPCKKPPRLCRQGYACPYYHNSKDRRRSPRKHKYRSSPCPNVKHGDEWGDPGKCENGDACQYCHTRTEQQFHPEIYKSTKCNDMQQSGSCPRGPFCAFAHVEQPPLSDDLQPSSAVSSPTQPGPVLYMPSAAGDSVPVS
Setting: RNA with constant flanks, human and mouse sites, ends assumed
Constant ends, left off below: GGGAGUUCUACAGUCCGACGAUC … CAACAGAGGAUUGAGCAUCA
| Sequence | bound/input enrichment |
| --- | --- |
| GAGAACAAGCUCUGGUGUCCAUUAGUUCAAGAAAUCCUGUGUUGAAGCAUAAUGUUGCUACAUAAGCCAGAGAAAGGAAGAGCGCUGCCAGGCCUGAUCGUUGGUAGUGGCAUGGAGGAC | 0.455 ratio |
| UUUAUAAGUCCAGAGUCUGGUUUUUAACAAGCUGUUCUUCAGUAUUCAGCUUAAGAUAGGCAACUCUUUUCUGUACAUAGUGUACAUUACAACUAAAAGUAAUGGGAAACACUGUAUUUU | 0.196 ratio |
| UUUUUACUUGGAAAUAACUGCACAUUUAUAUAUAGGAUAUUGGACUCUGCUUAGCAUUUUCAAGCCACAUAGCAUGACUGUUUUUUGAAUAGGUUGGAAUUGAAAAAACAAUUAUCAAAC | 6.95 ratio |
| AGUUGGCGCUUCAGCAGCUGAAUGCCGUUGCCUCCCAUGGUUCAACACCACCUUAUACUUUUUUAAAUCAGGCAUUCUUGAAAGUAGCCAUGUCGAGACCCAGGUUUAAUCCUCGAGGGA | 0.394 ratio |
| GAUGUGAAAUUUUUCUUUUUGUUUCUGCUUUUUGGCACAUAAAUUGGCUAUUUCUUCUGGAGUGGAUAAGUACAACAGUGACAAAUACAUGGAACAGUAAAGAAGACCUUGCUCUUAAAU | 0.225 ratio |
| GAGUUUUCCCCACCAAGGGGACCAUGCACAUGGUAGAAACAUUAGAUUCUGCAUUGACAGUAGCCUUUCCUUGGCCCGGGCCUGUGGUGGGAAGACGGGCAACAAGUAUACCCCACCAGG | 0.226 ratio |
| GAAGAUGUUGCCAUGGCCAAAAGAGAAAUCCUCUCGGCUGCAGAGCACUUUUCUAUGAUUCGUGCAUCUCGAAACAAAAAUGGUCCUGCACUAGGAGGGUUAUCGUGUAGUCCUAAUCUG | 0.163 ratio |
| GGUGUUGCUGGAGUAGGGGCUGGUCUGGCAUAUCUAAUAAGAUAGCCUUGUGAGUGCAAUAGGGGACUCUUAAAGCUCCAGCCACCAAACUACAUGCAUCUGUGAAAACAUGUGUAUUUA | 0.167 ratio |
| GCUCUUGCCUGCAAGUUUAGCUUGUGUUAAGGCAUUUGGGGGGACCAUUUAACUUACUGCUAGUUUGGGAUGUCUUUGUGAGAGUAGGGUUGGCACCAAUGCAGUAUGGAAGGCUAGGAG | 0.855 ratio |
| AAUAAAUUGGAAUUUAAAAAUAUCGAUAUCACCAUGAUUUAAUCCAGAUCUGGGAUUAUGUAGCUAAACAUUGUGAUGAUUAUUAUUUAAAACCAUUAUUUAAUAAGAGUAAAAAUAUGU | 0.606 ratio |
| ACUGACUCACCUCGCUUAUUGGCCUCCCCCUCCAGCAGGAGUAUUGACAUUUCAGCUACUAUCCCCAAGUUUACAAACACGCAGAUUACGGAACAUUACUCCACCUGUAUCAAACUGUCC | 0.313 ratio |

Block 5 — target: UBE2I UBC core domain (UniProt P63279); method: yeast two-hybrid; matrix: yeast; setting: mostly zero background; reference: not given; reading: higher = stronger interaction
B1: UBOX5 RING domain (UniProt O94941); chain EQPGSILGPECASCKRVFSPYFKKEPVYQLPCGHLLCRPCLGEKQRSLPMTCTACQRPVASQDVLR
B2: RFWD3 RING domain (UniProt Q6PCD5); chain ASMDEEEGDTCTICLEQWTNAGDHRLSALRCGHLFGYRCISTWLKGQVRKCPQCNKKARHSDIVV
B3: RNF133 RING domain (UniProt Q8WVZ7); chain DEEINPNGDSCVICFERYKPNDIVRILTCKHFFHKNCIDPWILPHGTCPICKCDILKVLGIQ
B4: ZMIZ2 RING domain (UniProt Q8NF64); chain GTIPGTPGPNGEDGVEQTAIKVSLKCPITFRRIQLPARGHDCRHIQCFDLESYLQLNCERGTWRCPVCNKTALLEGLEVDQYMLGILIYIQNSDYEEITIDPTCSWK
B5: SH3RF1 RING domain (UniProt Q7Z6J0); chain DESALLDLLECPVCLERLDASAKVLPCQHTFCKRCLLGIVGSRNELRCPECRTLVGSGVEEL
B6: DTX2 RING domain (UniProt Q86UW9); chain EELKVPPDEDCIICMEKLSTASGYSDVTDSKAIGSLAVGHLTKCSHAFHLLCLLAMYCNGNKDGSLQCPSCKTIYGEKTGTQ
B7: SYTL4 RING domain (UniProt Q96C24); chain RGSQHYSDRTCARCQESLGRLSPKTNTCRGCNHLVCRDCRIQESNGTWRCKVCAKEIELKKAT
B8: RNF121 RING domain (UniProt Q9H920); chain MPTKHLSDSVCAVCGQQIFVDVSEEGIIENTYRLSCNHVFHEFCIRGWCIVGKKQTCPYCKEKVDLKRMFS
B9: MAP3K1 RING domain (UniProt Q13233); chain NSIKDEEEQMCPICLLGMLDEESLTVCEDGCRNKLHHHCMSIWAEECRRNREPLICPLCRSKWRSHDFYS
| Sequence | lacZ reporter activity |
| --- | --- |
| B1 (UBOX5 RING domain) | 0 |
| B2 (RFWD3 RING domain) | 0 |
| B3 (RNF133 RING domain) | 0 |
| B4 (ZMIZ2 RING domain) | 0 |
| FDGDVDPDLKCALCHKVLEDPLTTPCGHVFCAGCVLPWVVQEGSCPARCRGRLSAKELN (PDZRN3 RING domain (UniProt Q9UPQ7)) | 0 |
| B5 (SH3RF1 RING domain) | 0 |
| B6 (DTX2 RING domain) | 0 |
| B7 (SYTL4 RING domain) | 0 |
| NLSELTPYILCSICKGYLIDATTITECLHTFCKSCIVRHFYYSNRCPKCNIVVHQTQPLY (PCGF6 RING domain (UniProt Q9BYE7)) | 0 |
| B8 (RNF121 RING domain) | 0 |
| B9 (MAP3K1 RING domain) | 0 |
